Published values from different studies.
Every numbered part comes from another study and shows a few of its results, in no order. “And” joins repeats or separate records; there may be more than shown.
UniProt P78368, sequence (whole entry, looked up): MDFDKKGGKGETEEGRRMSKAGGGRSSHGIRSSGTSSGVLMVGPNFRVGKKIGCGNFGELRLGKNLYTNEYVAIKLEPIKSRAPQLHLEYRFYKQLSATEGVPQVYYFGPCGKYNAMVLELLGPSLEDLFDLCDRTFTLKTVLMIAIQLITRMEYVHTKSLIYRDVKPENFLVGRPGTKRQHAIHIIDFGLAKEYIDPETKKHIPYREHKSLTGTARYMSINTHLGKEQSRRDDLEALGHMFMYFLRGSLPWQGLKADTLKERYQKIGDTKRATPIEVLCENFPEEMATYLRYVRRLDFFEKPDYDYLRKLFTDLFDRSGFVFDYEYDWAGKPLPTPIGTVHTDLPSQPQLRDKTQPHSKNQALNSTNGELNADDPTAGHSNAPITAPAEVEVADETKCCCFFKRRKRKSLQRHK
UniProt Q8NE63, sequence (whole entry, looked up): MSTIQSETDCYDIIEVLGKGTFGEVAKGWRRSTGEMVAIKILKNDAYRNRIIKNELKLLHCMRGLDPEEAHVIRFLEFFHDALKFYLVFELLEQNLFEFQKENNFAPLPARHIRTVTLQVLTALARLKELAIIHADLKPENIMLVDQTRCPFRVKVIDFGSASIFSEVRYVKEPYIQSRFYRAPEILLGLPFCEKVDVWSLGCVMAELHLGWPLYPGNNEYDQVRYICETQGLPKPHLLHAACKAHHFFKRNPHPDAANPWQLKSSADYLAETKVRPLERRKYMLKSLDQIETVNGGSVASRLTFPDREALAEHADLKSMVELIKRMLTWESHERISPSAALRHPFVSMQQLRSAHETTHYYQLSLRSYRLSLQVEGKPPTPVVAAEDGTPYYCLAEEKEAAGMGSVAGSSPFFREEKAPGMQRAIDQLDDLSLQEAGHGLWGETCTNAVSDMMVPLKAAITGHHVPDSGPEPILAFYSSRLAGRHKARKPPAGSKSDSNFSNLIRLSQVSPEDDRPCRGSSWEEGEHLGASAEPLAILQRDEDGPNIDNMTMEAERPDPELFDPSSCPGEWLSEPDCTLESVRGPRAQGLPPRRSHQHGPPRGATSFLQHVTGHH
UniProt O14976, sequence (whole entry, looked up): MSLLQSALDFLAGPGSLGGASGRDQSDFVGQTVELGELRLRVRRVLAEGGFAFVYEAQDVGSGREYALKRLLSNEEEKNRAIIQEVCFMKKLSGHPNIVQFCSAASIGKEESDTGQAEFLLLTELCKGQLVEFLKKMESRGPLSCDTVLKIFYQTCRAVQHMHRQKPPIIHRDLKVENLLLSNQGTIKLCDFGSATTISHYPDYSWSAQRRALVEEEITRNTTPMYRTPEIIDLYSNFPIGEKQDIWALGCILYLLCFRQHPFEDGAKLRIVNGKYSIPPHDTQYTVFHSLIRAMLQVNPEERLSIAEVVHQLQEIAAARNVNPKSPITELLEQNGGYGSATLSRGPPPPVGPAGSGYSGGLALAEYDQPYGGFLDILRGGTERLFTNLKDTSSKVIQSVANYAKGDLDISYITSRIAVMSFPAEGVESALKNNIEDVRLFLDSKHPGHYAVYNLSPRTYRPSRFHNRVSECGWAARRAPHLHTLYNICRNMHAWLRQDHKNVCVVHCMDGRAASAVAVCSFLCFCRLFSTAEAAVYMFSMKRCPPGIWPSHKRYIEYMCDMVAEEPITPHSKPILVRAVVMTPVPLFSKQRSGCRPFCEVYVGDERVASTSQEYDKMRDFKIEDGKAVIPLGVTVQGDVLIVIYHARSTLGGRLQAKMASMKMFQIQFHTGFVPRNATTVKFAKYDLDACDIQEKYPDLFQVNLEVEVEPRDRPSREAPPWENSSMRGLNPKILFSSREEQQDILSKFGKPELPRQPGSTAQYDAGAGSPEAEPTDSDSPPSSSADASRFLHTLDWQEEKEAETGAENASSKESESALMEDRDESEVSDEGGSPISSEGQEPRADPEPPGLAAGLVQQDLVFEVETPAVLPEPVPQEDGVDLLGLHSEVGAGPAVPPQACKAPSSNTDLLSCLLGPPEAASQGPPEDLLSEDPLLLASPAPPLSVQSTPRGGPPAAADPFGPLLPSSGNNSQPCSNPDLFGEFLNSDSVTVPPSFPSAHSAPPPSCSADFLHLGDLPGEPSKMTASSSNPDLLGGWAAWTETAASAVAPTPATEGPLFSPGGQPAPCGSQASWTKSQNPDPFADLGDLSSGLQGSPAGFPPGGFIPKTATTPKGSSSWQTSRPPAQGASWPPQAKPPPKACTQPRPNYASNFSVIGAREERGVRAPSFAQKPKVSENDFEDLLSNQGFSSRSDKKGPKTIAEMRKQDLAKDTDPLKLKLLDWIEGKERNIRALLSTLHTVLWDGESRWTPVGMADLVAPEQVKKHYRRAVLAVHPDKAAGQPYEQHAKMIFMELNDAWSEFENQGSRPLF
UniProt O43293, sequence (whole entry, looked up): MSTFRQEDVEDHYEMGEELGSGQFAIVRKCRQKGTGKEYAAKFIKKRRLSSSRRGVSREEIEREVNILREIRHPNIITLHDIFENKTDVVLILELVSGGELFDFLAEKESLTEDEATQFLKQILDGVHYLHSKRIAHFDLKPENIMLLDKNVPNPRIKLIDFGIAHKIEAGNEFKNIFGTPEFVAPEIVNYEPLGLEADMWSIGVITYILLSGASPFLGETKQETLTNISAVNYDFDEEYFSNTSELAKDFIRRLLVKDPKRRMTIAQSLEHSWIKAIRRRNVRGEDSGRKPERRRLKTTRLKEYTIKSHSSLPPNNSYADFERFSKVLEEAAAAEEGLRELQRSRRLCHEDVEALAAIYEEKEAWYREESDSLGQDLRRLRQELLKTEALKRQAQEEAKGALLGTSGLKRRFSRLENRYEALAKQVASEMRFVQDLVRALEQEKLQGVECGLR
UniProt Q56UN5, sequence (whole entry, looked up): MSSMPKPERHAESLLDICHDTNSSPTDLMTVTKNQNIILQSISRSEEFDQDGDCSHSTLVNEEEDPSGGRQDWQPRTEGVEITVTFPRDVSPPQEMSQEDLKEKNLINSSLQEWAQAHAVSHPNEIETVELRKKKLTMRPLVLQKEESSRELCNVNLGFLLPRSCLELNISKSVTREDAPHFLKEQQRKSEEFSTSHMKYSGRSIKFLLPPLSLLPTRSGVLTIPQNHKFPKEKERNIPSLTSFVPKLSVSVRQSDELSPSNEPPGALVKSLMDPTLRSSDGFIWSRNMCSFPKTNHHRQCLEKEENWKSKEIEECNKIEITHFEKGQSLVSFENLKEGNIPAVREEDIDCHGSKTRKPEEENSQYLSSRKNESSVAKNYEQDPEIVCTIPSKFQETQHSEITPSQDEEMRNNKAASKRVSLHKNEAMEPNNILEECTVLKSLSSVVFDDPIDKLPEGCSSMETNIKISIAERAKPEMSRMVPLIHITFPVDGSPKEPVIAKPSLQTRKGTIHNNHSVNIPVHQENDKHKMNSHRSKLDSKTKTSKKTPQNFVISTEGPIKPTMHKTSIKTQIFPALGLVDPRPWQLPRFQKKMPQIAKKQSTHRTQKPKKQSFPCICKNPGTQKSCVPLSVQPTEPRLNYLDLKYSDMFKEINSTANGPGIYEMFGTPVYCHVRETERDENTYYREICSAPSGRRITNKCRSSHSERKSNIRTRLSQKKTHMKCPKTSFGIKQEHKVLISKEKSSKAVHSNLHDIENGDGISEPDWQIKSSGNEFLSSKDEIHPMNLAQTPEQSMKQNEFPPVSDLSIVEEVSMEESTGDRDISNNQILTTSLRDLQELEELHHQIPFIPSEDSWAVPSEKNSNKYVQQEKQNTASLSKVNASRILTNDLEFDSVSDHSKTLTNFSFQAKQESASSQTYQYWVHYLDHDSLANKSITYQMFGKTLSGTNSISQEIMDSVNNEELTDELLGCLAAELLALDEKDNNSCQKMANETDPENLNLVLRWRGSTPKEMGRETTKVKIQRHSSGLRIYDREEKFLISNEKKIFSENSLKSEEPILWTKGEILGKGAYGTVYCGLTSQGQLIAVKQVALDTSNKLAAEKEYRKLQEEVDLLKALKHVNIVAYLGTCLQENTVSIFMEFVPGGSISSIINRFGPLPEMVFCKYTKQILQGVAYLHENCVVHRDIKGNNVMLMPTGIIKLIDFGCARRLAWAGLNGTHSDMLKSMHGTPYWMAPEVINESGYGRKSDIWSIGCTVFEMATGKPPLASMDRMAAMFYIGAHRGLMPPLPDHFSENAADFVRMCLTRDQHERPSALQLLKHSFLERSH
UniProt P28482, sequence (whole entry, looked up): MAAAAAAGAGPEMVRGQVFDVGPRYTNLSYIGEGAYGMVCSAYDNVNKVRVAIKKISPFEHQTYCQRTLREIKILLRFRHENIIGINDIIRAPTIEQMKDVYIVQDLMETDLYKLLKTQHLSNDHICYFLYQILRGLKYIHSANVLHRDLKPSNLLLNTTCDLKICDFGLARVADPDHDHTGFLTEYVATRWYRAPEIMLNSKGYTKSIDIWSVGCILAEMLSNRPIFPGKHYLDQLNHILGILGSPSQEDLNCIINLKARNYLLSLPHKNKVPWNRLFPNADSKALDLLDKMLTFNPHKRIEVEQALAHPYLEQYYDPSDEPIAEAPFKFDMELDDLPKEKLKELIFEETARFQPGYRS

Set 1
Structure (SMILES): CCN1/C(=C/C=C2\CCCC(/C=C/C3=[N+](CC)c4ccccc4C3(C)C)=C2NCCCCCCCCN2CCC(Nc3nc4ccccc4n3Cc3ccc(F)cc3)CC2)C(C)(C)c2ccccc21
Cell line: U-87 MG
Tested at: concentration not given
Reference: DMSO
The “log2 fold change” was -1.19 (item: FUT8 mRNA).
For item: YOD1 mRNA: “log2 fold change” read 1.16.
For item: HACD1 mRNA: “log2 fold change” read -1.25.
item: B3GNT9 mRNA — “log2 fold change”: -0.847.
It gave -1.44 for “log2 fold change” (item: PASK mRNA).
item: IKBKE mRNA — “log2 fold change”: -1.4.
The “log2 fold change” was -3.12 (item: TGFB3 mRNA).
It gave 0.961 for “log2 fold change” (item: TMEM39A mRNA).
It gave 1.03 for “log2 fold change” (item: SLU7 mRNA).
It gave 2.78 for “log2 fold change” (item: CLDN1 mRNA).
It gave 1.66 for “log2 fold change” (item: FGF2 mRNA).

Set 2
SMILES: CC[C@@]1(c2ccccc2)C2=C(CC(C)(C)CC2=O)Nc2n[nH]cc21
Tested at: 1 µM
PRKCQ (Homo sapiens, UniProt Q04759); binding, competition with immobilised ligand — remaining binding: 73%.
DDR2 (Homo sapiens, UniProt Q16832); kinase binding, KINOMEscan; reference: DMSO control — remaining binding: 99%.
MAPK1 (Homo sapiens, UniProt P28482); binding, competition with immobilised ligand — remaining binding: 100%.
For MAP3K19 (Homo sapiens, UniProt Q56UN5); binding, competition with immobilised ligand: remaining binding read 98%.
STK11 (Homo sapiens, UniProt Q15831); kinase binding, KINOMEscan; reference: DMSO control — remaining binding: 71%.
The remaining binding was 100% (GAK (Homo sapiens, UniProt O14976); binding, competition with immobilised ligand).
For SRPK3 (Homo sapiens, UniProt Q9UPE1); kinase binding, KINOMEscan; reference: DMSO control: remaining binding read 100%.
It gave 100% for remaining binding (EPHA8 (Homo sapiens, UniProt P29322); kinase binding, KINOMEscan; reference: DMSO control).
MAST1 (Homo sapiens, UniProt Q9Y2H9); binding, competition with immobilised ligand — remaining binding: 100%.
For BMPR1A (Homo sapiens, UniProt P36894); kinase binding, KINOMEscan; reference: DMSO control: remaining binding read 100%.
TAOK3 (Homo sapiens, UniProt Q9H2K8); binding, competition with immobilised ligand — remaining binding: 100%.
It gave 97% for remaining binding (DAPK3 (Homo sapiens, UniProt O43293); binding, competition with immobilised ligand).
For TLK2 (Homo sapiens, UniProt Q86UE8); binding, competition with immobilised ligand: remaining binding read 97%.
GRK7 (Homo sapiens, UniProt Q8WTQ7); binding, competition with immobilised ligand — remaining binding: 100%.
CAMK2B (Homo sapiens, UniProt Q13554); kinase binding, KINOMEscan; reference: DMSO control — remaining binding: 96%.
For CSNK1G2 (Homo sapiens, UniProt P78368); binding, competition with immobilised ligand: remaining binding read 99%.
It gave 100% for remaining binding (CAMK1 (Homo sapiens, UniProt Q14012); kinase binding, KINOMEscan; reference: DMSO control).
For PIM3 (Homo sapiens, UniProt Q86V86); binding, competition with immobilised ligand: remaining binding read 100%.
The remaining binding was 100% (EPHB2 (Homo sapiens, UniProt P29323); binding, competition with immobilised ligand).
It gave 100% for remaining binding (HIPK4 (Homo sapiens, UniProt Q8NE63); kinase binding, KINOMEscan; reference: DMSO control).
For Ribosomal protein S6 kinase alpha-2, N-terminal kinase domain (RPS6KA2, Homo sapiens, UniProt Q15349); kinase binding, KINOMEscan; reference: DMSO control: remaining binding read 100%.
ACVR2B (Homo sapiens, UniProt Q13705); binding, competition with immobilised ligand — remaining binding: 100%.

Set 3
SMILES: Cc1ncsc1-c1ccc(C(CO)NC(=O)C2CC(O)CN2C(=O)C(NC(=O)c2ccc(COc3c(-c4c(C)c(F)cc5[nH]ncc45)c(C4CC4)cc4c(N5CC6CC5CN6)nc(OC5CCOCC5)nc34)cc2)C(C)C)cc1 (stereo not shown)
Time: 6 days
ASPC1; cell growth or viability, ATP luminescence; 0.1 µM — viability: 72.5% and 69.1% and 63% and 66.1% and 39.5% and 73.5%.
ASPC1; cell growth or viability, ATP luminescence; 10 nM — viability: 90.2% and 86.9% and 94.6% and 89.6% and 81.4%.
For AsPC-1; CellTiter-Glo; 3 nM: viability read 87.3% and 86.5% and 85.8%.
ASPC1; cell growth or viability, ATP luminescence; 1 nM — viability: 81% and 72.3% and 78.2% and 97% and 78.9% and 84.8%.
AsPC-1; CellTiter-Glo; 10 µM — viability: 5.1% and 4.02% and 4.93%.
It gave 90.6% and 90.3% and 84.8% for viability (AsPC-1; CellTiter-Glo; 300 pM).

Set 4
Structure (SMILES): Cc1ncc(-c2cc3c(C#N)c(-c4c(C)ccc(O)c4C)cnc3[nH]2)cn1
Target: Membrane-associated tyrosine- and threonine-specific cdc2-inhibitory kinase (PKMYT1, Homo sapiens, UniProt Q99640)
UniProt Q99640, sequence (whole entry, looked up): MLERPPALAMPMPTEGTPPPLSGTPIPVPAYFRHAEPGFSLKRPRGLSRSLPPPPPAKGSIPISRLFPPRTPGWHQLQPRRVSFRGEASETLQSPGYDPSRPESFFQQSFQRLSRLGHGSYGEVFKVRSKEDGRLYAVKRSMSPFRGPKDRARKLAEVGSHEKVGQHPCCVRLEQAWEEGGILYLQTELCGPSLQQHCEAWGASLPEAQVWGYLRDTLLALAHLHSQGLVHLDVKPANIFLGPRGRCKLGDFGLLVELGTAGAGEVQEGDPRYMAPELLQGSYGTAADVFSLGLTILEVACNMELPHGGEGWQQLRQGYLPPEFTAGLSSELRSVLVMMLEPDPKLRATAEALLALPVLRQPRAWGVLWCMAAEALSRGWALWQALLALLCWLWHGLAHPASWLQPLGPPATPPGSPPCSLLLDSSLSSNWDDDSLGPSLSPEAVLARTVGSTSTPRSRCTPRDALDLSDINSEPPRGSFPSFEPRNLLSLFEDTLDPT
cell-free assay, TR-FRET; 0.3704 µM — inhibition: 99.7%.
It gave 95% for inhibition (0.01372 µM).
cell-free assay, TR-FRET; 508 pM — inhibition: 4.44%.
The inhibition was 99.7% (0.04115 µM).
3.333 µM — inhibition: 102%.
0.3704 µM — inhibition: 100%.
cell-free assay, inhibitor, TR-FRET; 510 pM — inhibition: 4.44%.
The inhibition was 4.73% (0.00051 µM).
The inhibition was 47.3% (cell-free assay, TR-FRET; 1.52 nM).
For 0.1235 µM: inhibition read 99.5%.

Repeated from above (set 4):
cell-free assay, TR-FRET; 0.3704 µM — inhibition: 99.7%.
It gave 95% for inhibition (0.01372 µM).
cell-free assay, TR-FRET; 508 pM — inhibition: 4.44%.
The inhibition was 99.7% (0.04115 µM).
